Published values pooled from the literature.
Lines come from different studies, so protocols differ. “And” joins repeats or separate records; there may be more than shown. ± marks the error that the study gave.

The glucose lowering of `N[C@@H](CC(=O)N1CCn2c(nnc2C(F)(F)F)C1)Cc1cc(F)c(F)cc1F` is reported as 17% (oral glucose tolerance test; ob/ob mouse; oral, 10 mg/kg, -30 min, added: glucose 2 g/kg).
`Cc1cc(C)c(CNC(=O)c2cc(Cl)c3c(c2C)O[C@@](C)([C@H]2CC[C@H](N(C)C)CC2)O3)c(=O)[nH]1` — result for “best overall response PD”: 31% (IWG 2007 criteria; human, relapsed/refractory PTCL not otherwise specified; dose not given).
`CSCCNc1nc(SCCC(F)(F)F)nc2c1ncn2[C@@H]1O[C@H](COP(=O)(O)OP(=O)(O)C(Cl)(Cl)P(=O)(O)O)[C@@H](O)[C@H]1O` gave an inhibition of 25.3 ± 25.3% (ADP-induced platelet aggregation, LTA; human patients, platelet-rich plasma; dose not given, 4 to 6 h, added: ADP 20 µM).
For `NCC(=O)Nc1cncc(-c2nn3c(=O)cc(N4CCNCC4)nc3s2)c1`, “inhibition of platelet aggregation” read 42.7% (ADP-induced platelet aggregation, light transmission aggregometry; stable CAD patients on aspirin; subcutaneous, 0.04 mg/kg, 30 min post-dose, added: ADP 20 µM; relative to: placebo).
`COCCOC(=O)C1=C(C)NC(C)=C(C(=O)OC(C)C)C1c1cccc([N+](=O)[O-])c1` (stereo not shown): “resting membrane potential” -66.1 mV and -79 mV and -64.7 mV and -71.7 mV and -63.5 mV and -68.7 mV (whole-cell current clamp; DRG neurons, naive rat; dose not given).
`NC(=NCCC[C@@H](C(=O)NCc1ccccc1)n1cc(-c2ccc(-c3ccccc3)cc2)nn1)c1ccc([N+](=O)[O-])o1`: IFN-beta secretion “inhibited” (STING signalling, inhibitor, ELISA; iBMDM, mouse, culture medium; dose not given, 24 h, added: diABZI 500 nM).
Under “complete response rate”, `COc1ncnn2ccc(-c3cnc4nc(C)n(Cc5nnc([C@@H](C)F)o5)c4c3)c12` is recorded as 50% (Homo sapiens, relapsed or refractory AML or MDS; dose not given, MDS patients).
`OC(CCN1CCCCC1)(c1ccccc1)C1CC2C=CC1C2` (stereo not shown) — result for “EEG Alpha1-power Fz-Cz”: 4 µV² (resting-state EEG; healthy elderly humans; oral, 4 mg, eyes closed, LS mean).
The sarcomere length of `CC(C)NCC(O)c1ccc(O)c(O)c1` (stereo not shown) is reported as 1.72 µm (ventricular cardiomyocytes, C57BL/6 mouse; dose not given, 0.372 s).
For `CCN(O)N=Nc1ccc(S(=O)(=O)Nc2onc(C)c2C)cc1`, “paw edema volume” read 4.19 ± 0.67 a.u. (carrageenan-induced paw edema; Wistar rat; oral, 100 mg/kg, 4 h after carrageenan, added: carrageenan 1% subplantar; higher = more edema).
`COc1nc(NCc2cn(-c3ccc(NC(=O)c4ccc([N+](=O)[O-])cc4)cc3)nn2)nc(OC)n1` gave an IC50 of 9.79 ± 0.85 nM (cell viability, MTT; normal colonocytes, rat; 72 h).
Under “log2 fold change”, `c1ccc(-c2n[nH]cc2-c2ccnc3ccccc23)nc1` is recorded as 1.56 (kinase binding, competitor, MIB/MS competition, measured: IKS1; Candida albicans cell lysate; 10 µM; relative to: DMSO).
`N[C@@H](CC(=O)N1CCn2c(nnc2C(F)(F)F)C1)Cc1cc(F)c(F)cc1F` gave a triglycerides of 176 mg/dL (type 2 diabetes patients on metformin, fasting plasma; oral, 100 mg once daily, 28 weeks).
Under “time to γH2AX decrease”, `C=CCn1c(=O)c2cnc(Nc3ccc(N4CCN(C)CC4)cc3)nc2n1-c1ccc2c(n1)[C@@](O)(CC)CC2` is recorded as no more than 24 h (immunohistochemistry; mouse, OVCAR-3 xenograft, tumour; 100 mg/kg, dosed 3 days).
For `CN[C@@H]1C[C@H]2O[C@@](C)([C@@H]1OC)n1c3ccccc3c3c4c(c5c6ccccc6n2c5c31)C(=O)NC4`, the apoptosis-inducing concentration was greater than 1 µM (5TGM1, mouse).
`Cc1cc(NS(=O)(=O)c2ccc(N=NN(O)c3ccccc3)cc2)no1` — result for “paw edema volume”: 4.41 ± 0.93 a.u. (carrageenan-induced paw edema; Wistar rat; oral, 100 mg/kg, 3 h after carrageenan, added: carrageenan 1% subplantar; higher = more edema).
With `COc1ccccc1[C@H](Cn1c(=O)n(C(C)(C)C(=O)O)c(=O)c2c(C)c(-c3ncco3)sc21)OC1CCOCC1` the serum leptin was 4.78 ± 2.93 ng/mL (human; 20 mg, post-treatment).
For `CCCCOc1nc(N)c2c(n1)N(Cc1cccc(CN3CCCC3)c1)CC(=O)N2`, “immune cell activation markers” read “no effect” (flow cytometry; human, blood; dose not given, three dosing periods; relative to: baseline).
`Cc1cc(NS(=O)(=O)c2ccc(N=NN(C)O)cc2)no1` — result for “paw edema volume”: 4.18 ± 0.46 a.u. (carrageenan-induced paw edema; Wistar rat; oral, 100 mg/kg, 4 h after carrageenan, added: carrageenan 1% subplantar; higher = more edema).
`N#Cc1ccc2c(c1)[C@H]1CCCN(C(=O)c3ccc4[nH]cnc4c3)[C@H]1C2`: “androstenedione change from baseline” 2.08 nmol/L (human clinical trial, female; oral, 240 mg once daily).
`COc1cc(/C=C/C(=O)N2CCC=CC2=O)cc(OC)c1OC` gave a mRNA level of 0.614 (qRT-PCR, measured: NFE2L1; nude mouse MDA-MB-468 xenograft, tumour; 15 mg/kg, 21 days, normalised to beta-actin, unit not given; relative to: vehicle).
`COc1nc(-c2cccc(-c3ccccc3)c2C)ccc1CNCCNC(=O)CCCCCCCCCCC(=O)N1CCN(CCNC(=O)c2cc3c(=O)n4cccc(C)c4nc3n(CCc3cccs3)c2=N)CC1` — result for cytokine level: “increased” (measured: IFN-γ; mouse tumour model, tumour and peripheral blood; dose not given; relative to: vehicle).
For `CC[C@H](C)[C@H](NC(=O)[C@H](CCC(=O)O)NC(=O)[C@H](C)NC(=O)[C@@H](NC(=O)[C@H](Cc1c[nH]cn1)NC(=O)[C@H]1CCC[C@@H]1NC(=O)[C@H](CCC(=O)O)NC(=O)[C@H](C)NC(=O)[C@H]1CCC[C@@H]1NC(=O)[C@H](CC(C)C)NC(=O)[C@H](Cc1c[nH]cn1)NC(=O)[C@H](Cc1c[nH]cn1)NC(=O)[C@H]1CCC[C@@H]1NC(=O)[C@H](Cc1ccccc1)NC(=O)[C@H](Cc1ccccc1)NC(=O)[C@H](CCCNC(=N)N)NC(=O)[C@H](CCCNC(=N)N)NC(=O)[C@H](CCCNC(=N)N)NC(=O)[C@H]1CCC[C@@H]1NC(=O)[C@H](CC(=O)O)NC(=O)[C@H](CCC(N)=O)NC(=O)[C@@H](NC(=O)C[C@H](Cc1c[nH]c2ccccc12)NC(=O)[C@H](CCCCN)NC(=O)[C@@H](Cc1c[nH]c2ccccc12)NC(=O)[C@H](CC(C)C)NC(=O)[C@H](CC(=O)O)NC(=O)[C@H](Cc1c[nH]cn1)NC(=O)[C@H](CC(C)C)NC(=O)C[C@@H](N)CC(C)C)[C@@H](C)CC)[C@@H](C)O)C(N)=O`, “time to recovery of blood ionized calcium” read 8 h (T410R-hPTH1R mouse; subcutaneous, 500 nmol/kg).
`CC#CC(=O)N[C@H]1CCCN(c2c(F)cc(C(N)=O)c3[nH]c(C)c(C)c23)C1` gave a serum immunoglobulin of -6.2 % change (measured: IgA; human; 3 mg once daily, day 21; relative to: baseline).
For `CC(C)C[C@H](NC(=O)[C@@H](Cc1c[nH]c2ccccc12)NC(=O)[C@H](Cc1ccc(O)cc1)NC(=O)[C@H](CO)NC(=O)[C@H](Cc1c[nH]c2ccccc12)NC(=O)[C@H](Cc1c[nH]cn1)NC(=O)[C@@H]1CCC(=O)N1)C(=O)N[C@@H](CCCNC(=N)N)C(=O)N1CCC[C@H]1C(=O)NCC(N)=O`, “stable pubic hair stage” read 100% (Tanner staging; Chinese boys, central precocious puberty; intramuscular, 22.5 mg day 1, month 6, month 6; relative to: baseline).
`O=C1Nc2cc3[nH]nc(-c4ccncc4)c3cc2CN1Cc1ccccc1`: “partial response, best response” 0% (RECIST v1.1; human, relapsed or refractory advanced solid tumours; intravenous, 0.9 mg/kg, pooled schedules).
Under “log2 fold change”, `N#Cc1ccc2c(-c3ccncc3)c(-c3ccc(F)cc3)nn2c1` is recorded as 0.667 (kinase binding, competitor, MIB/MS competition, measured: PKH2; Candida albicans cell lysate; 100 nM; relative to: DMSO).
For `COc1cc2cc(-c3ccc(CC(=O)Nc4cc(C(C)(C)C(F)(F)F)no4)cn3)cnc2cc1OC`, “best overall response PD” read 5% (RECIST v1.1; human RET fusion-positive NSCLC; 75 mg, phase I).
`Cc1ccc(N(O)N=Nc2ccc(S(=O)(=O)Nc3onc(C)c3C)cc2)cc1` — result for “paw edema volume”: 6.14 ± 0.84 a.u. (carrageenan-induced paw edema; Wistar rat; oral, 100 mg/kg, 1 h after carrageenan, added: carrageenan 1% subplantar; higher = more edema).
`C[C@@H](O)CCOC(=O)C[C@@H](C)O` gave a metabolite level of 5.09 ± 0.59 µmol/L (measured: Cit; human, plasma; 60 min, log2-transformed values).
The EC50 of `CC1(C)CCC(c2ccc(Cl)cc2)=C(CN2CCN(c3ccc(C(=O)NS(=O)(=O)c4ccc(N[C@H](CCN5CCOCC5)CSc5ccccc5)c(S(=O)(=O)C(F)(F)F)c4)cc3)CC2)C1` is reported as 18.8 nM (cell kill, PI exclusion flow cytometry; circulating neoplastic cells, human, peripheral blood; 24 h).
`C[C@H]1C[C@H]2CSC(N)=N[C@@]2(c2nc(NC(=O)c3ccc(OC(F)F)cn3)cs2)CO1`: “percent change from baseline” -40% (measured: Aβx-40; healthy adults, plasma; 12 mg single dose, 48 h post-dose; relative to: placebo).
`Cc1noc(C)c1-c1cc(C(O)(c2ccccn2)c2ccccn2)c2nc(C3CC3)[nH]c2c1` gave a maximum inhibition of 32.1% (measured: CCR2 expression; human, peripheral blood; 3 mg, day 1, 1599 study).
With `Cc1cc(F)cc2c(CCC(=O)N[C@@H]3C(=O)NC[C@H]3O)c(-c3ccc(F)cc3)[nH]c12` the UACR was 983 µg/mg and 361 µg/mg and 710 µg/mg and 911 µg/mg and 531 µg/mg (mice, APOL1 G2, single copy; day 5, before treatment, added: IFNγ plasmid injection).
`O=C(COc1ccc(Cl)cc1)NC12CC(c3nnc([C@H]4C[C@@H](OC(F)(F)F)C4)o3)(C1)C2` — result for “ATF4 protein change”: -72.6% (healthy human, PBMC; 200 mg once daily, day 15, 24 h post-dose, median, added: sodium arsenite ex vivo; relative to: baseline).
Under “paw edema volume”, `CCCN(O)N=Nc1ccc(S(=O)(=O)Nc2cc(C)on2)cc1` is recorded as 4.23 ± 0.89 a.u. (carrageenan-induced paw edema; Wistar rat; oral, 100 mg/kg, 3 h after carrageenan, added: carrageenan 1% subplantar; higher = more edema).
For `COc1c(C)cnc(Cn2cc(C#CCCOP(=O)(O)O)c3c(Cl)nc(N)nc32)c1C`, “serum HER-2 ECD decrease” read less than 20 % below baseline (measured: HER-2 extracellular domain; human patients, serum; 48 mg/m^2).
The inhibition of `O=C1Nc2ccccc2C1=Cc1ccccn1` is reported as 55.6% (platelet aggregation; platelet-rich plasma; 10 µM, added: ADP 5 µM).
`Cc1cccc(N(O)N=Nc2ccc(S(=O)(=O)Nc3cc(C)on3)cc2)c1` — result for “paw edema volume”: 4.4 ± 0.73 a.u. (carrageenan-induced paw edema; Wistar rat; oral, 100 mg/kg, 4 h after carrageenan, added: carrageenan 1% subplantar; higher = more edema).
`N#Cc1ccc2c(c1)[C@H]1CCCN(C(=O)c3ccc4[nH]cnc4c3)[C@H]1C2`: “change in fasting glucose” 4.9% (human, plasma; 10 mg, day 15, 360 h; relative to: placebo and baseline).
`COc1cc(Nc2ncc3c(n2)-c2ccc(Cl)cc2C(c2c(F)cccc2OC)=NC3)ccc1C(=O)O`: “relative tumour volume T/C” 1.05 (mouse, NB-EBc1 neuroblastoma xenograft; oral, 10.4 mg/kg, day 7; relative to: vehicle).
`O=C(OC(C(F)(F)F)C(F)(F)F)N1CCN(Cc2cccc(Oc3ccccc3)c2)CC1` gave a k4 of 0.143 min⁻¹ (PET blocking study; rhesus monkey, brain Pons; 0.1 mg/kg, compound pretreatment, added: [18F]T-401 tracer).
With `O=C(O)CNC(=O)Cc1ccccc1` the sarcomere length was 1.68 µm (ventricular cardiomyocytes, C57BL/6 mouse; dose not given, 0.608 s).

For quick reference, copied from above:
`N[C@@H](CC(=O)N1CCn2c(nnc2C(F)(F)F)C1)Cc1cc(F)c(F)cc1F` gave a triglycerides of 176 mg/dL (type 2 diabetes patients on metformin, fasting plasma; oral, 100 mg once daily, 28 weeks).
Under “time to γH2AX decrease”, `C=CCn1c(=O)c2cnc(Nc3ccc(N4CCN(C)CC4)cc3)nc2n1-c1ccc2c(n1)[C@@](O)(CC)CC2` is recorded as no more than 24 h (immunohistochemistry; mouse, OVCAR-3 xenograft, tumour; 100 mg/kg, dosed 3 days).
For `CN[C@@H]1C[C@H]2O[C@@](C)([C@@H]1OC)n1c3ccccc3c3c4c(c5c6ccccc6n2c5c31)C(=O)NC4`, the apoptosis-inducing concentration was greater than 1 µM (5TGM1, mouse).
`Cc1cc(NS(=O)(=O)c2ccc(N=NN(O)c3ccccc3)cc2)no1` — result for “paw edema volume”: 4.41 ± 0.93 a.u. (carrageenan-induced paw edema; Wistar rat; oral, 100 mg/kg, 3 h after carrageenan, added: carrageenan 1% subplantar; higher = more edema).
